Assay results gathered from unrelated publications.
A part holds a random share of what one study measured. Changes are numbered by the printed parent chain.
Sequence of UniProt Q13153 (whole entry, looked up): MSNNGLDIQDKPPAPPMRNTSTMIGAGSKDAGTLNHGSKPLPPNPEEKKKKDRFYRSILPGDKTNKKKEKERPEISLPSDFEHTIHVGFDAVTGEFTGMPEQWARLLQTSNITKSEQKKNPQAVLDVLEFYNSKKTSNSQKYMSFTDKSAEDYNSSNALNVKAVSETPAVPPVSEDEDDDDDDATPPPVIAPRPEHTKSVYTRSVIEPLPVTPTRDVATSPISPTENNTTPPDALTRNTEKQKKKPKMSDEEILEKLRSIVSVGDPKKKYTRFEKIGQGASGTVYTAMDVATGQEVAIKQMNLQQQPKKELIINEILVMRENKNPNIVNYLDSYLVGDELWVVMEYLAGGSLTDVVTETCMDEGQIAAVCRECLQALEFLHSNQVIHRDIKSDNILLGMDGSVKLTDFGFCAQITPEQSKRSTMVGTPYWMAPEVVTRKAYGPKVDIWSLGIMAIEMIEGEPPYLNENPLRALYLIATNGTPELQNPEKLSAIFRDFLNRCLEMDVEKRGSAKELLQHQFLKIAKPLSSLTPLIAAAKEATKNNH
Sequence of UniProt Q15418 (whole entry, looked up): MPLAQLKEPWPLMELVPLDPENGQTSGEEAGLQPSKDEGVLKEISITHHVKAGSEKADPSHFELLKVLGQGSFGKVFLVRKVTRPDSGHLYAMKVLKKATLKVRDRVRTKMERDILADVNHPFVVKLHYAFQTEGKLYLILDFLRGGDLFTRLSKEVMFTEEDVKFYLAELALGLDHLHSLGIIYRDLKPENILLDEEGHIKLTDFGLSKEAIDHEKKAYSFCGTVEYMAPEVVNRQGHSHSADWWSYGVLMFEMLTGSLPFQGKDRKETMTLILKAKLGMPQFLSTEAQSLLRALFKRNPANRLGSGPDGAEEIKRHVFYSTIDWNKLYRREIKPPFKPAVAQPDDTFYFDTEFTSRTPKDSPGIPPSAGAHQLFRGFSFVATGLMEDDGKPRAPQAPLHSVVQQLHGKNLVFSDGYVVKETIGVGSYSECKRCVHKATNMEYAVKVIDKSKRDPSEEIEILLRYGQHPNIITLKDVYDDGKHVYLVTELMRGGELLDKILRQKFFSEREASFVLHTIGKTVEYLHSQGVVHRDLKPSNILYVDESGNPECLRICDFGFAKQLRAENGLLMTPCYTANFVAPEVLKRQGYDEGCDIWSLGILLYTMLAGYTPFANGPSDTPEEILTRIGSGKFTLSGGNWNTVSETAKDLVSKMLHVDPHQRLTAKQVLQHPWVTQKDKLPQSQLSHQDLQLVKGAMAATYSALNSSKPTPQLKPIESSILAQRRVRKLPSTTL
Sequence of UniProt P24723 (whole entry, looked up): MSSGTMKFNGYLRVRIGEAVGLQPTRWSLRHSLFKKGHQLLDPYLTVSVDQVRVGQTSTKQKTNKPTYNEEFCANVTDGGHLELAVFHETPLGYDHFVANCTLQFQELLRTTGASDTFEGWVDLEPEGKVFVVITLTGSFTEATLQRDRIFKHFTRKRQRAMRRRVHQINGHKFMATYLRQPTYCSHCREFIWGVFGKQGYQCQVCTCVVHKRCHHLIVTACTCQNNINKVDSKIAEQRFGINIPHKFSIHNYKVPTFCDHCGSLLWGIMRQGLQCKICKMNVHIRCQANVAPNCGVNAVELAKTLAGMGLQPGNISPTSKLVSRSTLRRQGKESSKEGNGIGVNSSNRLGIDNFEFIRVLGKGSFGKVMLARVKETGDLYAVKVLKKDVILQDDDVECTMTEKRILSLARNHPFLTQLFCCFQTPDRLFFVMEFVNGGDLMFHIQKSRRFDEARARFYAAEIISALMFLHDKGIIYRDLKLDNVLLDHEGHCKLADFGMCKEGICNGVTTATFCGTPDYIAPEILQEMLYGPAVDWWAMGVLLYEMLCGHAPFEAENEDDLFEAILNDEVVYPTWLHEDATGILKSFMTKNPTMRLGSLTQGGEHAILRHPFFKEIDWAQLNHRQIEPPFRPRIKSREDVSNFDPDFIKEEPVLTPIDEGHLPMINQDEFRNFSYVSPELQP
Sequence of UniProt Q15835 (whole entry, looked up): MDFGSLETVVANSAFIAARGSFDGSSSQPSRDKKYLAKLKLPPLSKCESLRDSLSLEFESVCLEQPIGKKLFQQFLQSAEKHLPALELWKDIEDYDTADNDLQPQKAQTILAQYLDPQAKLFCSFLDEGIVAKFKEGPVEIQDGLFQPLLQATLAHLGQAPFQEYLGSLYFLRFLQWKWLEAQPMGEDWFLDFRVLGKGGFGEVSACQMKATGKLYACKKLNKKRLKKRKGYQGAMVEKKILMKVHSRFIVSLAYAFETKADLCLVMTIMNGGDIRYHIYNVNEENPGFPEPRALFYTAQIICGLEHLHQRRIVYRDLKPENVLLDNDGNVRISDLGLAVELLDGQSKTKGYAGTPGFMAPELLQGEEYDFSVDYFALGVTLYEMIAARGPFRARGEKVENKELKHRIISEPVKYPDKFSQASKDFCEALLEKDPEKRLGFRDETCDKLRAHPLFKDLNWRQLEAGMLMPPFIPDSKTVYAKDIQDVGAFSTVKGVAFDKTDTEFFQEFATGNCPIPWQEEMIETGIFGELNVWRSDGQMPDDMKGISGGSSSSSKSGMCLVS

Set 1
Target: Ribosomal protein S6 kinase alpha-4 (RPS6KA4, Homo sapiens, UniProt O75676)
Sequence of UniProt O75676 (whole entry, looked up): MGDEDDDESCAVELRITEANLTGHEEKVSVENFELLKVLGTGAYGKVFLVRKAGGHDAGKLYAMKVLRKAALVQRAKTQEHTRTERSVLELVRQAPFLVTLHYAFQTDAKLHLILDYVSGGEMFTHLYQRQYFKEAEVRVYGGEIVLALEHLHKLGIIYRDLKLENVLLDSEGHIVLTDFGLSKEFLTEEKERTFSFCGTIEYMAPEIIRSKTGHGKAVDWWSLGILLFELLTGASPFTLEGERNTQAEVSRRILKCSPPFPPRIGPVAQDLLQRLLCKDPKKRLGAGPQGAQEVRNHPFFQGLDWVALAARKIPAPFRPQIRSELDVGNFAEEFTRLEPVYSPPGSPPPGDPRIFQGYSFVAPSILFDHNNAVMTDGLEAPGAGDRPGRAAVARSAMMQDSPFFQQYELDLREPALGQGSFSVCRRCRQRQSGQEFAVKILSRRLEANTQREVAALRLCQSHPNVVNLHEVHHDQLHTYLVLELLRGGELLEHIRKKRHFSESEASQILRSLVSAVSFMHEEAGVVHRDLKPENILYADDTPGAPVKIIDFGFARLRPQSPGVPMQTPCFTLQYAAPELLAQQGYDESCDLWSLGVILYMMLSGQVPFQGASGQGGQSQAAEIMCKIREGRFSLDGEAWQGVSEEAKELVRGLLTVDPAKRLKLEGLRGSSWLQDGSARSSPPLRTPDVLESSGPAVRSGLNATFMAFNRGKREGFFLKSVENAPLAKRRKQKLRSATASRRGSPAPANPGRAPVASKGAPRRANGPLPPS
Read-out: enzyme activity
Mode: inhibitor
Tested at: 0.5 µM
Reference: control
SMILES | remaining activity [%]
COc1ccc(OC)c2c(=S)c3ccccc3[nH]c12 | 93.5
Cn1c2ccccc2c2c3c(c4c5ccccc5n(CCC#N)c4c21)CNC3=O | 29.9
O=C(Nc1cccc(Nc2cc(Nc3cccc(C(F)(F)F)c3)ncn2)c1)C1CC1 | 100
CC(C)[C@H](CO)Nc1nc(Nc2cc(N)cc(Cl)c2)c2ncn(C(C)C)c2n1 | 89.3
NCCNc1ncc(C(N)=O)c(Nc2cccc(C(F)(F)F)c2)n1 | 88.1
COc1ccc(CNC(=O)Nc2ncc([N+](=O)[O-])s2)cc1 | 101
Cn1sc(=O)n(Cc2ccccc2)c1=O | 99
Oc1ccc(-c2nc(-c3ccncc3)c(-c3ccc(F)cc3)[nH]2)cc1 | 95.9
O=C1NC(=O)C(c2cn(CCCn3ccnc3)c3ccccc23)=C1Nc1ccccc1 | 44.4
CN(C)c1ccc(C=C2C(=O)Nc3ccccc32)cc1 | 95.2
Nc1[nH]nc2nc3ccccc3nc12 | 79
COc1ccc(C(=O)Nc2sc3c(c2C(N)=O)CCCC3)cc1OC | 102

Set 2
Target: ATF5, bZIP domain (human)
Technique: DHFR protein complementation
Sample: yeast
Setting: single substitutions, most at no-binding floor
Reference: wild-type JUN-FOS pair
Direction: higher = stronger binding
Starting sequence: JUN, bZIP domain (human); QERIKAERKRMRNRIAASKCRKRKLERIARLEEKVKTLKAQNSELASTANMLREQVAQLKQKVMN; partner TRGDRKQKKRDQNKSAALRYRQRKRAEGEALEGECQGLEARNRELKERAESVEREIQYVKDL
Substitution | binding fitness [natural log]
A46L | -1.18
A49R | -1.48
Q41D | -1.56
L52A | -1.47
A40L | -1.3
L38Q | -1.53
R30H | -1.56
E32G | -1.43

Set 3
Target: ABI1, truncated, D143A, DHFR fusion (Arabidopsis thaliana, UniProt P49597)
Technique: DHFR PCA, dose-response
Sample: yeast
Setting: Hill fit, mean, not affinity
Added: (+)-ABA, dose series
Direction: lower = more sensitive
Starting sequence: PYL1, truncated, DHFR fusion (Arabidopsis thaliana, UniProt Q8VZS8); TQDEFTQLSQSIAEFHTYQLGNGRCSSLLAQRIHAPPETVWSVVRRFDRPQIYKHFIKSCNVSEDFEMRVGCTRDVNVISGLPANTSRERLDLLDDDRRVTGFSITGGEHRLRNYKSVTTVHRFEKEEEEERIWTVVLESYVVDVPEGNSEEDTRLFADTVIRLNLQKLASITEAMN
Substitution | ABA EC50 [µM]
E125C | 2.17
F15A | 121
T39C | 3.65
G21K | 2.61
T106R | 29.9
R90K | 3.65
H55E | 3.06
V62R | 93.4

Set 4
Structure (SMILES): O=C(O)[C@H]1[C@H](Cn2nnc3ccccc3c2=O)CC[C@@H]1C(=O)c1ccc(OCCC2CCOCC2)cc1
Read-out: cell-free assay
Technique: competition with immobilised ligand
Tested at: 1 µM
target | remaining binding [%]
Protein kinase C eta type (PRKCH, Homo sapiens, UniProt P24723) | 89
Serine/threonine-protein kinase PAK 1 (PAK1, Homo sapiens, UniProt Q13153) | 83
Ribosomal protein S6 kinase alpha-1, N-terminal kinase domain (RPS6KA1, Homo sapiens, UniProt Q15418) | 90
Rhodopsin kinase GRK1 (GRK1, Homo sapiens, UniProt Q15835) | 97

For quick reference, copied from above (set 2):
Substitution | binding fitness [natural log]
Q41D | -1.56
R30H | -1.56
L52A | -1.47
A49R | -1.48
A40L | -1.3
